{"data": "Published values collected from several papers", "note": "Each numbered part is a random draw from the data of one study; scales do not carry over between parts."}
{"data": "Block 1", "target": "Prothrombin, mature alpha-thrombin (F2, Homo sapiens, UniProt P00734)", "technique": "aptamer microarray, sandwich", "molecule type": "DNA with 2'F-ANA", "sample": "in vitro", "concentration": "200 nM", "setting": "whole 15-mer aptamer, many near background", "added": "Cy3 exosite-II aptamer, 400 nM", "direction": "higher = stronger binding", "sequence": "GGTTGGTGTGGTTGG"}
{"Modification": "2'F-ANA at 5 6 7 8 9 10 11 13 15", "mean fluorescence intensity": "51.6 a.u."}
{"Modification": "2'F-ANA at 1 2 4 5 6 11 13 14 15", "mean fluorescence intensity": "50.9 a.u."}
{"Modification": "2'F-ANA at 1 2 3 4 5 6 7 9 11 12 13 14 15", "mean fluorescence intensity": "55.8 a.u."}
{"Modification": "2'F-ANA at 1 3 5 6 7 9 10 14 15", "mean fluorescence intensity": "48.2 a.u."}
{"Modification": "2'F-ANA at 4 6 7 8 9 11 12 13 14", "mean fluorescence intensity": "87.3 a.u."}
{"Modification": "2'F-ANA at 1 2 3 6 8 9 14", "mean fluorescence intensity": "68 a.u."}
{"Modification": "2'F-ANA at 1 2 4 5 7 8 15", "mean fluorescence intensity": "142 a.u."}
{"Modification": "2'F-ANA at 1 3 5 7 9 12 13", "mean fluorescence intensity": "76.4 a.u."}
{"Modification": "2'F-ANA at 1 2 4 7 9 10 12 15", "mean fluorescence intensity": "57.5 a.u."}
{"Modification": "2'F-ANA at 6 9 10 13 14", "mean fluorescence intensity": "109 a.u."}
{"Modification": "2'F-ANA at 1 2 3 4 5 8 14", "mean fluorescence intensity": "61 a.u."}
{"Modification": "2'F-ANA at 1 2 3 4 5 7 12 13", "mean fluorescence intensity": "76.1 a.u."}
{"Modification": "2'F-ANA at 3 6 7 8 9 11 12 13", "mean fluorescence intensity": "1090 a.u."}
{"Modification": "2'F-ANA at 1 4 5 6 11", "mean fluorescence intensity": "127 a.u."}
{"Modification": "2'F-ANA at 1 2 3 5 6 7 13", "mean fluorescence intensity": "54.9 a.u."}
{"Modification": "2'F-ANA at 3 5 6 7 9 14", "mean fluorescence intensity": "51.9 a.u."}
{"Modification": "2'F-ANA at 11 12 14", "mean fluorescence intensity": "222 a.u."}
{"data": "Block 2", "target": "RNA binding protein fox-1 homolog 2, RRM domain, GST-SBP tag (RBFOX2, Homo sapiens, UniProt O43251-10, residues 100-194)", "technique": "RNA Bind-n-Seq", "molecule type": "RNA", "sample": "in vitro", "concentration": "365 nM", "setting": "natural RNA segment, single round, ends assumed", "relative to": "no-protein control", "direction": "higher = stronger binding", "all sequences stand within": "GGGAGUUCUACAGUCCGACGAUC … UGGAAUUCUCGGGUGCCAA", "Target sequence (chain)": "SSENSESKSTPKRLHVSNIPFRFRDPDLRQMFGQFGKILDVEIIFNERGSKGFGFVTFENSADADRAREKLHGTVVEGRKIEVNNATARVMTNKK"}
{"Sequence": "UCUGAAAUGCCCAUGGACUCUGCCUCCCAACCAUUCGUCUCUCACUCCUAGCAGAGCUGUCUGUGCAGACUGUUUCUUAGGAGGCACAGCAAGCUCCAGGGAACCCUCUG", "RBNS enrichment (R)": 0.644}
{"Sequence": "CAAUGGAGCAAAGACUCCUGCUAGGCCCUGGUCUCCCUGGGGUUUAUCCCUCCUGGGUCAUGGGAAAAGUCAGUCUCCACAUUACAGAUCACUUCCAGAGGGAGGCUGGA", "RBNS enrichment (R)": 0.35}
{"Sequence": "UCUUGCCACUGGUGAGAGAAGGCCCUUGUCUCCUCAGACUAGGAGGUCUCCCACAGUGACAGCUCCUGGGUCCUUGUUCAGGAAAAGCCUGUGUGUUACCACUGCCUCAU", "RBNS enrichment (R)": 0.23}
{"Sequence": "GGCGUCGCCGGAAACCCAGGGAACCUCUCUGAAGUGACACCUCACCCCUACACACCGUCCGUUCACCCCCGUCUCUUCCUUCUGCUUUUCGGUUUUUGGAAAGGGAUCCA", "RBNS enrichment (R)": 0.535}
{"Sequence": "CUGCUCGGGCUGUUUGCUGUUGGCUGGUAAUAAUAUAUUUGAUUUAAAUGCUGUUGACUGUGCUAUUAACUGCUGCCGUCAGUAAACUCCAAAGAUCUUUUUGUUUUGGC", "RBNS enrichment (R)": 0.801}
{"Sequence": "UCUGGACCAAGUAAAGAUGGGUCCGUGGCCCACACUCGGUCAUGUGCUCAGACAACGACUGAUGAAAACGCCCAUGCGGUUUGCAUCGACUGAUAGUGUGUUCUUUCCGG", "RBNS enrichment (R)": 3}
{"Sequence": "CCCUCAAGAUCCUCAAGUUGAAUGUUUUGUAGAUCUUCAAGGAUAAGCCUUCUGCUUAUUCUCCUAGCACAAUGCAAGGAAAUUUUACUUUUUAAAUCUUAGAGAGAUUC", "RBNS enrichment (R)": 6.23}
{"Sequence": "GCUCUUGUGAAGCUCCAGGUAGACGGGAAUGUUCCUCGGUUCAGGUGAGAGCCAGAUCUAGAGAGUCAGAACCCGGGGGUCUUGAGAUAGGAGGCAAAGCAGCUAUGGAA", "RBNS enrichment (R)": 0.848}
{"Sequence": "UCAUCAUUUACCCUAGGUAAGAACUUUGAUCACUGCUUACUAGGUAAAGAAUGUUUGUACUGUUCCAAAACCCAGGCUUCUUUAUUCCUUUACCACUAUCCAUGUGAGCA", "RBNS enrichment (R)": 0.437}
{"Sequence": "UAUCCAGUGCAAUCAACUGUCAUUUCUUUUUCCUUAAAACAUAUGAGUAUAUAGAAAGAAAAGUUACAGUACUCUGUGGGAAAAUCUCAGCUGACAUCAUGAAUAGAAUG", "RBNS enrichment (R)": 0.471}
{"Sequence": "UUAGCAGGUAGAAAAUUAUUUGUAUUAUAUUCAUCUGAUUCCUAUACUGGAUGAGCAAGGAGCAUGCUUCCUUUGGGACAUUCUUACAGCAGGGUGUCUCUCCAACAGCC", "RBNS enrichment (R)": 0.641}
{"Sequence": "UGGGAUGCAGGACCCCAGCUUCCGUUCCCAAGCCCUGUUGGGAGUCCUUUCCAGUGCUUCAGGAUGCUGGGGCGACCAAAGGAGCCUUUUAAAAAAUGUUUUUAUACAAA", "RBNS enrichment (R)": 0.492}
{"data": "Block 3", "target": "Fragile X messenger ribonucleoprotein 1, C-terminal low-complexity region (Fmr1, Mus musculus, UniProt P35922)", "technique": "RNA Bind-n-Seq", "molecule type": "RNA", "sample": "in vitro", "concentration": "200 nM", "setting": "whole 134-nt RNA, ends assumed", "added": "150 mM LiCl", "relative to": "input library", "direction": "higher = stronger binding", "library": "7-deaza-guanosine replaces G", "all sequences stand within": "GGGAGUUCUACAGUCCGACGAUC … UGGAAUUCUCGGGUGUCAAGG"}
{"Sequence": "CACAGACAACACGCACCCACACAGACACAGAGGGAAGGGGUUGGGAUGGGGACAGGUUGCACAGCAGGGCGGGGUAGGACCCCAGCCCCU", "log2 enrichment": -0.0655}
{"Sequence": "UCCUGUGCUACACAUCGUAUGUACCGAAUCGGGGUUUGGGGUUUUUUUGGGGUUUGGGGAAAGUAUUAUGUUACGCCGUUCGGAUCUGCA", "log2 enrichment": -0.235}
{"Sequence": "UGGGAGGUGGAUUUUGUUUAUUUUUUUAGCUCAUUUCCAGGGGUGGGAAUUUUUUUUUAAUAUGUCUCAUGAAUAAAGUUGUUUUUGAAA", "log2 enrichment": -0.656}
{"Sequence": "CCUGUGCUACACAUCGUAUGUACCGAAUCGGAAAAAAAGGGGAAAAAAAGGGAAAAAAAGGAAAGUAUUAUGUUACGCCGUUCGGAUCUG", "log2 enrichment": -0.101}
{"Sequence": "CCUCAAGUCCUGUGCUACACAUCGUAUGUACCGAAUCGGCGGGGCGGGGCGGGAAAGUAUUAUGUUACGCCGUUCGGAUCUGCACUUCCA", "log2 enrichment": -0.634}
{"Sequence": "UAACUUUAGAGGAGGAUCUGAUGGAUAUGGCAGUAGACGUGGAUUUGGGGAUGGCUAUAAUGGGUAUGGAGGAGGACCUGGAGGUGGCAA", "log2 enrichment": 0.712}
{"Sequence": "AAGUCCUGUGCUACACAUCGUAUGUACCGAAUCGGUUUUGGGUUUUGGGGUUUUGGGAAAGUAUUAUGUUACGCCGUUCGGAUCUGCACU", "log2 enrichment": -1.06}
{"Sequence": "CCUGUGCUACACAUCGUAUGUACCGAAUCGGGGUUUGGGGAAAAAGGGGAAAAAAAGGGGAAAGUAUUAUGUUACGCCGUUCGGAUCUGC", "log2 enrichment": -0.193}
{"Sequence": "ACCAUGCAGGUGGGCAUCUUUGGGACGUGGGGCAAGGGGGGGAUAGGGAGGGGGGUAACACUUUGGGAACAGGUGGUCCCAGGUCGUUUC", "log2 enrichment": 1.31}
{"Sequence": "UGUGCUACACAUCGUAUGUACCGAAUCGGGGCCCCCCCGGGCCCCCCCGGGGCCCCCCCGGGAAAGUAUUAUGUUACGCCGUUCGGAUCU", "log2 enrichment": -1.71}
{"Sequence": "CAAGUCCUGUGCUACACAUCGUAUGUACCGAAUCGGAAAGGAAAAAAAGGAAAGGAAAGUAUUAUGUUACGCCGUUCGGAUCUGCACUUC", "log2 enrichment": -0.687}
{"data": "Block 4", "target": "Sal-like protein 4, full length isoform B (SALL4, Homo sapiens, UniProt Q9UJQ4-2, residues 1-616)", "technique": "universal PBM", "molecule type": "double-stranded DNA, one strand shown", "sample": "in vitro", "concentration": "not given", "setting": "8-mer, flanks averaged, mean of replicates", "direction": "higher = stronger binding", "Residues (chain)": "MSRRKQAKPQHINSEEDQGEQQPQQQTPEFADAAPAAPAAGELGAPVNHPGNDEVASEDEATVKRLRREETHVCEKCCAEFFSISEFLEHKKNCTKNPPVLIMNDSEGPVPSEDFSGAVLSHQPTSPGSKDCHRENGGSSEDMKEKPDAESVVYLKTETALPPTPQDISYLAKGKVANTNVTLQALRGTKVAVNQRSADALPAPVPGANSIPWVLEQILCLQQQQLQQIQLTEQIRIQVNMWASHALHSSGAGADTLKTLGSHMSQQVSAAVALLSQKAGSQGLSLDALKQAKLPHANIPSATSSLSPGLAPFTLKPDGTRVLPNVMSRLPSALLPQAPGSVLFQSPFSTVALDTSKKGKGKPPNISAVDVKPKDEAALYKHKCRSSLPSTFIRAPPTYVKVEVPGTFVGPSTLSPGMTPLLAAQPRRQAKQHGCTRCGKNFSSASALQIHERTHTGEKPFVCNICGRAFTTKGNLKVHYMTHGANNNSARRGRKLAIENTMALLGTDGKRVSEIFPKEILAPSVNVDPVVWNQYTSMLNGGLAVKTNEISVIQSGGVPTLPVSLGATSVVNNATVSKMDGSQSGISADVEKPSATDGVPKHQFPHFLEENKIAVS"}
{"Sequence": "AAACTTGA", "E-score": 0.124}
{"Sequence": "ACGAAAAG", "E-score": 0.166}
{"Sequence": "ACGCGTAT", "E-score": 0.127}
{"Sequence": "ACACCAGG", "E-score": -0.135}
{"Sequence": "GCAACGCC", "E-score": -0.203}
{"Sequence": "AGGCAAAC", "E-score": -0.0659}
{"Sequence": "AACGTGAG", "E-score": 0.0585}
{"Sequence": "CGTAATCC", "E-score": -0.065}
{"Sequence": "AAAATCTG", "E-score": 0.0981}
{"Sequence": "ACCATTCC", "E-score": 0.0127}
{"Sequence": "ATGACAAC", "E-score": 0.207}
{"Sequence": "AAAGTCAG", "E-score": -0.0104}
{"Sequence": "ATAATGGC", "E-score": 0.127}
{"Sequence": "CGCATTCA", "E-score": 0.148}
{"Sequence": "ACGGGTAC", "E-score": -0.186}
{"Sequence": "CGACAGCG", "E-score": -0.239}
{"Sequence": "GCGCGCTA", "E-score": -0.171}
{"Sequence": "ATTTCAGA", "E-score": 0.213}
{"Sequence": "AGTCTAGC", "E-score": -0.161}
{"Sequence": "ATCAAAAC", "E-score": 0.19}
{"Sequence": "GAATTCAA", "E-score": 0.14}
{"note": "For quick reference, copied from above (block 3):"}
{"Sequence": "UCCUGUGCUACACAUCGUAUGUACCGAAUCGGGGUUUGGGGUUUUUUUGGGGUUUGGGGAAAGUAUUAUGUUACGCCGUUCGGAUCUGCA", "log2 enrichment": -0.235}
{"Sequence": "CAAGUCCUGUGCUACACAUCGUAUGUACCGAAUCGGAAAGGAAAAAAAGGAAAGGAAAGUAUUAUGUUACGCCGUUCGGAUCUGCACUUC", "log2 enrichment": -0.687}
{"Sequence": "AAGUCCUGUGCUACACAUCGUAUGUACCGAAUCGGUUUUGGGUUUUGGGGUUUUGGGAAAGUAUUAUGUUACGCCGUUCGGAUCUGCACU", "log2 enrichment": -1.06}
{"Sequence": "CCUGUGCUACACAUCGUAUGUACCGAAUCGGAAAAAAAGGGGAAAAAAAGGGAAAAAAAGGAAAGUAUUAUGUUACGCCGUUCGGAUCUG", "log2 enrichment": -0.101}
